# Experimental data pooled from the literature.
# A part holds a random share of what one study measured.
# Sequence of UniProt Q59H18 (whole entry, looked up): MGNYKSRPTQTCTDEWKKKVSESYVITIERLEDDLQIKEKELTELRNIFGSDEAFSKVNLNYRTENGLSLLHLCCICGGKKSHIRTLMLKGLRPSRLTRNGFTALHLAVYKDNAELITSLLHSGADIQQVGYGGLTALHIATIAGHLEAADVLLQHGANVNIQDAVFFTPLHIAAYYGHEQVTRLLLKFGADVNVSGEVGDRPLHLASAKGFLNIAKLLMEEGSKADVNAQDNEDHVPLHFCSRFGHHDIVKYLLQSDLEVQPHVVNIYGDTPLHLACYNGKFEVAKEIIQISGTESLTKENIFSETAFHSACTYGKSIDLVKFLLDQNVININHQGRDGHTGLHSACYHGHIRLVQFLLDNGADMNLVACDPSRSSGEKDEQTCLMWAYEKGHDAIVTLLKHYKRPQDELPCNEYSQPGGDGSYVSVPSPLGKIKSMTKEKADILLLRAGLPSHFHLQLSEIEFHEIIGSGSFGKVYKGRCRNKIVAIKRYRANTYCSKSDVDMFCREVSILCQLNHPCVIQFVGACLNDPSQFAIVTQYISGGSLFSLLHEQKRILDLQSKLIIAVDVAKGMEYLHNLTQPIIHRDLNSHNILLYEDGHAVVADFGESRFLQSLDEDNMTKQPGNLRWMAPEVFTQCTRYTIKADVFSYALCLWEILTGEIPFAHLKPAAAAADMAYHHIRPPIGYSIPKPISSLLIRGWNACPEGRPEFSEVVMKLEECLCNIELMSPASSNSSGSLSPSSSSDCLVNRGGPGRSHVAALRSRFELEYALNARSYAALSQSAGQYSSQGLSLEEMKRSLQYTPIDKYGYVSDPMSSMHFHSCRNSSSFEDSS
# Sequence of UniProt Q14164 (whole entry, looked up): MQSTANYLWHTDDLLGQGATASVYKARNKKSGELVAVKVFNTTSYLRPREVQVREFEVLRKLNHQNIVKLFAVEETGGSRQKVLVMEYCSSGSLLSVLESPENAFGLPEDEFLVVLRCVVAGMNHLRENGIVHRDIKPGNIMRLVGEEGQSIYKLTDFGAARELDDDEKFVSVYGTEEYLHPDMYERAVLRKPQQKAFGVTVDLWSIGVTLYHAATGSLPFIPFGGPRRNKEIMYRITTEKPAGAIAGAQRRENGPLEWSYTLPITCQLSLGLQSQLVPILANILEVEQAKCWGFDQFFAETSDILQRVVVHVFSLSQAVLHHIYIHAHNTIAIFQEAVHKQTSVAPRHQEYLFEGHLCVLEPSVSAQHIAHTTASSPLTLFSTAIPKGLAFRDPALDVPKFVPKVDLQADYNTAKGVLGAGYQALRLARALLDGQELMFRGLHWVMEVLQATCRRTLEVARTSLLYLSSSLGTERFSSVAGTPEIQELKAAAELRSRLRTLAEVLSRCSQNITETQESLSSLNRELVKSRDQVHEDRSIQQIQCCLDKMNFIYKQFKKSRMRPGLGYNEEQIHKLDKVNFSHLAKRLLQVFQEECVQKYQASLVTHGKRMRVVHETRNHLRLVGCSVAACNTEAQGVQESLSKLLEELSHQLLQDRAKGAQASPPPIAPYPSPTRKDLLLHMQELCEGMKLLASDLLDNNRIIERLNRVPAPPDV
# Sequence of UniProt Q16832 (whole entry, looked up): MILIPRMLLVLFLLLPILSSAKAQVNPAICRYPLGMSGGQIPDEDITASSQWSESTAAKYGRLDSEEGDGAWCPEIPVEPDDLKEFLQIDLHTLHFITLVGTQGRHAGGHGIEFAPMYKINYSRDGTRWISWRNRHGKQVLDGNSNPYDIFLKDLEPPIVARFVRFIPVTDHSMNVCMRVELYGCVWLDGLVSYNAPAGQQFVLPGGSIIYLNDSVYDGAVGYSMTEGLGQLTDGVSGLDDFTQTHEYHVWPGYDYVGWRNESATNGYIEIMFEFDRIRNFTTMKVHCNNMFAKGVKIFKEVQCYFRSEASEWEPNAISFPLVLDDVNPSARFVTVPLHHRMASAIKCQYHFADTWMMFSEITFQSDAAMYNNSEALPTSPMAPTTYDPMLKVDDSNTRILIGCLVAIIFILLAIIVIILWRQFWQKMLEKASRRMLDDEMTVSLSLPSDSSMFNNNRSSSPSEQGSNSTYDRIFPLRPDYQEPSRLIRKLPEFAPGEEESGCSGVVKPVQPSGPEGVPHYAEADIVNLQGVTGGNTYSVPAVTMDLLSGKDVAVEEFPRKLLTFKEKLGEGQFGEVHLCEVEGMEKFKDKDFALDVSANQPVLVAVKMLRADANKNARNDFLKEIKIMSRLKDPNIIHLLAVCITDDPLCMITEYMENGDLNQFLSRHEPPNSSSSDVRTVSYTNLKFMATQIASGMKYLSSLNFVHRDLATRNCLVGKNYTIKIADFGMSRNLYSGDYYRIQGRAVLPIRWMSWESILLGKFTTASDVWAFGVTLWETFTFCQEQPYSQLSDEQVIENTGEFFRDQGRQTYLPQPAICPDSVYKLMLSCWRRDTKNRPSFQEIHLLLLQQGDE
# Sequence of UniProt P11802 (whole entry, looked up): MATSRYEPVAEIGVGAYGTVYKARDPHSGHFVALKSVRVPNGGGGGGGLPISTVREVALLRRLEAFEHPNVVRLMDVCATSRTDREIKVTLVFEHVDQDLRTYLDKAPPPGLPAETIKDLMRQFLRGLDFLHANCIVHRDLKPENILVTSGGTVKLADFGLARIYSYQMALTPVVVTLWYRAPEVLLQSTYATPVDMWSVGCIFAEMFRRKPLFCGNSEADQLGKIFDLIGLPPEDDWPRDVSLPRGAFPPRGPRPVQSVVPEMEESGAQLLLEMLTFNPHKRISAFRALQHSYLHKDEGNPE
# Sequence of UniProt O14920 (whole entry, looked up): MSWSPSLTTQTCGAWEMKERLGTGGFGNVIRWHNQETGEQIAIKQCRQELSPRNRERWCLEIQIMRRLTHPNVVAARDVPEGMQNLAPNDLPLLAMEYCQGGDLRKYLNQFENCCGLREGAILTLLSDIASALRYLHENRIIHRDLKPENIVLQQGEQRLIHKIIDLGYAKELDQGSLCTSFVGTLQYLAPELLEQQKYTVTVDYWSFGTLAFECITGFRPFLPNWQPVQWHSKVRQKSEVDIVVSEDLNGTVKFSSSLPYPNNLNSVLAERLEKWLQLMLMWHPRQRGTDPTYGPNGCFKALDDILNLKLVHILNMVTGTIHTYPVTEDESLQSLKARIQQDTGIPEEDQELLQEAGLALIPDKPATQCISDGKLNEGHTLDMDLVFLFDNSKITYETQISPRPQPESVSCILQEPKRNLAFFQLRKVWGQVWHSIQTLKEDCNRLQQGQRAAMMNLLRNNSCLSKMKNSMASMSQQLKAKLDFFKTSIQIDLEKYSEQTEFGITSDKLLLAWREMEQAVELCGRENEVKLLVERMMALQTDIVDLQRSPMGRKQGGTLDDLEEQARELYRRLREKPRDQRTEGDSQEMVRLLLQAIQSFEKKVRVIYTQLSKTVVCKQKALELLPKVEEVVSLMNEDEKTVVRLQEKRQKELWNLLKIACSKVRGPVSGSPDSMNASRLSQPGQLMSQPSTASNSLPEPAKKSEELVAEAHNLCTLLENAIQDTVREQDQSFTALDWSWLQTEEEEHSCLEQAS
# Sequence of UniProt Q13557 (whole entry, looked up): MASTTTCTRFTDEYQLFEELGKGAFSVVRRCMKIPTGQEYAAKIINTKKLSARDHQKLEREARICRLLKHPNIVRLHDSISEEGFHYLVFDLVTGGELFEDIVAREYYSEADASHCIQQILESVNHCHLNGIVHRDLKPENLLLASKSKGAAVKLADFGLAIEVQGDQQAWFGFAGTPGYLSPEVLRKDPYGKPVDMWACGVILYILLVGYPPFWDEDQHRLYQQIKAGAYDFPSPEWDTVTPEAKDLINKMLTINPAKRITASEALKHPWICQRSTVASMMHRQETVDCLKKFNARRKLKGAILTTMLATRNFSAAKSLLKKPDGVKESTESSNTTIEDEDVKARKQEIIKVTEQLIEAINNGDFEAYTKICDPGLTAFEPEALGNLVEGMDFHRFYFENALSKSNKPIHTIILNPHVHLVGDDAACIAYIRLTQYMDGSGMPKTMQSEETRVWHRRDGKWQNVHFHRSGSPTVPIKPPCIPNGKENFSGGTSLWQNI
# Sequence of UniProt P35626 (whole entry, looked up): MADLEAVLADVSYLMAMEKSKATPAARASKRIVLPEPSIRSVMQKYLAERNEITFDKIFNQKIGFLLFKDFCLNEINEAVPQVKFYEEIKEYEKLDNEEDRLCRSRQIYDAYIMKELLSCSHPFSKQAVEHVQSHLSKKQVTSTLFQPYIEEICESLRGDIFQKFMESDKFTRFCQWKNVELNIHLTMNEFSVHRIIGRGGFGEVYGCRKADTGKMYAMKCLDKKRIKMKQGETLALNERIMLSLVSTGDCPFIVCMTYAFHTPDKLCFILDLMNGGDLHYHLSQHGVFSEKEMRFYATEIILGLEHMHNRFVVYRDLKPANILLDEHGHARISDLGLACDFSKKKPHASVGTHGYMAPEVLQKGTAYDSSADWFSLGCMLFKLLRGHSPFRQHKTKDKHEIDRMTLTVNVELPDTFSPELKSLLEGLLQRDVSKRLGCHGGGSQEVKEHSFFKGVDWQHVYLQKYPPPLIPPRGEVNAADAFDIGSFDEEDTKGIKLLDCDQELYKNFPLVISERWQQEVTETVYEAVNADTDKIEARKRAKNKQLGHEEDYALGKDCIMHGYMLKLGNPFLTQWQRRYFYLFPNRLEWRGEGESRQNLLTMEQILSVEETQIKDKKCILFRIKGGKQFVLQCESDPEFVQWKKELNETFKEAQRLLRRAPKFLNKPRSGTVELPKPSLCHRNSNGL
# Sequence of UniProt O15264 (whole entry, looked up): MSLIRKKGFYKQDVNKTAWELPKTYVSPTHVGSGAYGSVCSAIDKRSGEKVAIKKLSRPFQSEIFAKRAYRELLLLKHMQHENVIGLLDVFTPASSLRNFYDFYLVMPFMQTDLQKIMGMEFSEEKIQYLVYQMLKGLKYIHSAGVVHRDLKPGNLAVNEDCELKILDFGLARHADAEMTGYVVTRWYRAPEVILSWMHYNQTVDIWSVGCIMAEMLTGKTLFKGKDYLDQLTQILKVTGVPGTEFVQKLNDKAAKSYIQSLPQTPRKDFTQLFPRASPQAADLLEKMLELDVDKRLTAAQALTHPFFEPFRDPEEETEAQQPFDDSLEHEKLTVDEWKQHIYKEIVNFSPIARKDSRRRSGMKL

# Study 1
# SMILES: Cc1ccc(NC(=O)c2ccnc(C(F)(F)F)c2)cc1-c1cc(OCCO)nc(N2CCOCC2)c1
# Tested at: 1 µM
target,assay,remaining binding [%]
"PAK2 (Homo sapiens, UniProt Q13177)",binding,100
"FGR (Homo sapiens, UniProt P09769)","cell-free assay, competition with immobilised ligand",80
"MET (Homo sapiens, UniProt P08581, Y1235D)",binding,100
"STK32A (Homo sapiens, UniProt Q8WU08)",binding,90
"CDK11A (Homo sapiens, UniProt Q9UQ88)",binding,49
"DYRK1A (Homo sapiens, UniProt Q13627)",binding,100
"CHUK (Homo sapiens, UniProt O15111)",binding,50
"MAK (Homo sapiens, UniProt P20794)",binding,90
"Ribosomal protein S6 kinase alpha-2, N-terminal kinase domain (RPS6KA2, Homo sapiens, UniProt Q15349)","binding, competition with immobilised ligand",100
"Ribosomal protein S6 kinase alpha-6, C-terminal kinase domain (RPS6KA6, Homo sapiens, UniProt Q9UK32)","binding, competition with immobilised ligand",100
"FRK (Homo sapiens, UniProt P42685)","binding, competition with immobilised ligand",55
"PIM3 (Homo sapiens, UniProt Q86V86)",binding,85
"TNNI3K (Homo sapiens, UniProt Q59H18)","binding, competition with immobilised ligand",62
"RIOK2 (Homo sapiens, UniProt Q9BVS4)",binding,100
"TTK (Homo sapiens, UniProt P33981)","binding, competition with immobilised ligand",100
"MAPK13 (Homo sapiens, UniProt O15264)","binding, competition with immobilised ligand",93
"NTRK3 (Homo sapiens, UniProt Q16288)","binding, competition with immobilised ligand",98
"EPHA4 (Homo sapiens, UniProt P54764)","binding, competition with immobilised ligand",85

# Study 2
# Compound: Cc1nc(Nc2ncc(C(=O)Nc3c(C)cccc3Cl)s2)cc(N2CCN(CCO)CC2)n1
# Mode: inhibitor
target,setting,inhibition
"IKBKB (Homo sapiens, UniProt O14920)",10 µM,< 50%
"ACVR1B (Homo sapiens, UniProt P36896)",10 µM,97%
"SRPK2 (Homo sapiens, UniProt P78362)",10 µM,< 50%
"CDK16 (Homo sapiens, UniProt Q00536)",10 µM,< 50%
"CSNK1E (Homo sapiens, UniProt P49674)",10 µM,78%
"MAP2K3 (Homo sapiens, UniProt P46734)",10 µM,< 50%
"Ribosomal protein S6 kinase alpha-4, C-terminal kinase domain (RPS6KA4, Homo sapiens, UniProt O75676)",10 µM,< 50%
"BMPR2 (Homo sapiens, UniProt Q13873)",10 µM,< 50%
"PDPK1 (Homo sapiens, UniProt O15530)",1 µM,< 50%
"CDK8 (Homo sapiens, UniProt P49336)",10 µM,< 50%
"Aurora kinase A (AURKA, Homo sapiens, UniProt O14965)",1 µM,< 50%
"EPHA7 (Homo sapiens, UniProt Q15375)",10 µM,< 50%
"EIF2AK4 (Homo sapiens, UniProt Q9P2K8, S808G)",10 µM,86%
"MAP3K7 (Homo sapiens, UniProt O43318)",10 µM,< 50%
"DDR2 (Homo sapiens, UniProt Q16832)",10 µM,100%

# Study 3
# Structure (SMILES): CC(=O)Nc1c(C(C)=O)c(=O)n(C)c2nc(-c3ccc(Cl)cc3Cl)c(-c3ccc(Cl)cc3)cc12
# Tested at: 1 µM
target,assay,remaining binding
"PRKG2 (Homo sapiens, UniProt Q13237)","cell-free assay, competition with immobilised ligand",100%
"Tyrosine-protein kinase JAK3, JH1 (JAK3, Homo sapiens, UniProt P52333)","cell-free assay, competition with immobilised ligand",100%
"EIF2AK2 (Homo sapiens, UniProt P19525)","cell-free assay, competition with immobilised ligand",100%
"FER (Homo sapiens, UniProt P16591)","cell-free assay, competition with immobilised ligand",88%
"Myosin-IIIb (MYO3B, Homo sapiens, UniProt Q8WXR4)","binding, competition with immobilised ligand",100%
"Cyclin-dependent kinase 4, with cyclin D3 (CDK4, Homo sapiens, UniProt P11802)","cell-free assay, competition with immobilised ligand",100%
"FLT1 (Homo sapiens, UniProt P17948)","cell-free assay, competition with immobilised ligand",100%
"TNNI3K (Homo sapiens, UniProt Q59H18)","cell-free assay, competition with immobilised ligand",100%
"IKBKE (Homo sapiens, UniProt Q14164)","cell-free assay, competition with immobilised ligand",80%
"BLK (Homo sapiens, UniProt P51451)","cell-free assay, competition with immobilised ligand",100%
"TEC (Homo sapiens, UniProt P42680)","cell-free assay, competition with immobilised ligand",100%
"EGFR (Homo sapiens, UniProt P00533, A750P/del747-749)","cell-free assay, competition with immobilised ligand",100%
"Aurora kinase B (AURKB, Homo sapiens, UniProt Q96GD4)","cell-free assay, competition with immobilised ligand",92%
"WEE2 (Homo sapiens, UniProt P0C1S8)","cell-free assay, competition with immobilised ligand",100%
"EGFR (Homo sapiens, UniProt P00533, L858R/T790M)","cell-free assay, competition with immobilised ligand",100%
"STK38L (Homo sapiens, UniProt Q9Y2H1)","cell-free assay, competition with immobilised ligand",87%
"ABL2 (Homo sapiens, UniProt P42684)","cell-free assay, competition with immobilised ligand",100%
"DDR2 (Homo sapiens, UniProt Q16832)","cell-free assay, competition with immobilised ligand",100%
"EPHA1 (Homo sapiens, UniProt P21709)","cell-free assay, competition with immobilised ligand",100%
"GAK (Homo sapiens, UniProt O14976)","cell-free assay, competition with immobilised ligand",100%
"FLT3 (Homo sapiens, UniProt P36888)","cell-free assay, competition with immobilised ligand",100%
"SIK1 (Homo sapiens, UniProt P57059)",competition binding,100%
"CDK15 (Homo sapiens, UniProt Q96Q40)","cell-free assay, competition with immobilised ligand",100%
"WNK4 (Homo sapiens, UniProt Q96J92)","cell-free assay, competition with immobilised ligand",100%
"Ribosomal protein S6 kinase alpha-3, C-terminal kinase domain (RPS6KA3, Homo sapiens, UniProt P51812)","cell-free assay, competition with immobilised ligand",99%

# Study 4
# SMILES: CCC(=O)Nc1ccc2ncnc(Nc3cccc(Br)c3)c2c1
# Observed: enzyme activity
# Mode: inhibitor
# Tested at: 0.5 µM
# Reference: control
target,remaining activity [%]
"STK39 (Homo sapiens, UniProt Q9UEW8)",96.1
"cGMP-dependent protein kinase 1, isoform beta (PRKG1, Homo sapiens, UniProt Q13976)",110
"MAPK9 (Homo sapiens, UniProt P45984)",78.3
"STK11 (Homo sapiens, UniProt Q15831)",103
"PRKACA (Homo sapiens, UniProt P17612)",94.6
"OXSR1 (Homo sapiens, UniProt O95747)",107
"TGFBR1 (Homo sapiens, UniProt P36897)",101
"STK10 (Homo sapiens, UniProt O94804)",68.7
"DAPK2 (Homo sapiens, UniProt Q9UIK4)",121
"Cyclin-dependent kinase 4, with cyclin D1 (CDK4, Homo sapiens, UniProt P11802)",101
"IKBKE (Homo sapiens, UniProt Q14164)",94.9
"PRKCA (Homo sapiens, UniProt P17252)",96.5
"IKBKB (Homo sapiens, UniProt O14920)",94.9
"DAPK1 (Homo sapiens, UniProt P53355)",99.4
"CAMK2D (Homo sapiens, UniProt Q13557)",113
"MAP3K3 (Homo sapiens, UniProt Q99759)",89.8
"NEK2 (Homo sapiens, UniProt P51955)",87.5
"CAMKK2 (Homo sapiens, UniProt Q96RR4)",84.3
"TGFBR2 (Homo sapiens, UniProt P37173)",116
"GRK3 (Homo sapiens, UniProt P35626)",99.2
"CHEK2 (Homo sapiens, UniProt O96017)",87.1
"Protein kinase C beta type, isoform beta-I (PRKCB, Homo sapiens, UniProt P05771)",99.2
"Tyrosine-protein kinase Lyn, isoform B (LYN, Homo sapiens, UniProt P07948)",87.7
"Cyclin-dependent kinase 5, with p25 (CDK5, Homo sapiens, UniProt Q00535)",78.4

# Repeated from above (study 2):
target,setting,inhibition
"Ribosomal protein S6 kinase alpha-4, C-terminal kinase domain (RPS6KA4, Homo sapiens, UniProt O75676)",10 µM,< 50%
"CSNK1E (Homo sapiens, UniProt P49674)",10 µM,78%
"MAP2K3 (Homo sapiens, UniProt P46734)",10 µM,< 50%
"CDK8 (Homo sapiens, UniProt P49336)",10 µM,< 50%
"IKBKB (Homo sapiens, UniProt O14920)",10 µM,< 50%
"DDR2 (Homo sapiens, UniProt Q16832)",10 µM,100%
"PDPK1 (Homo sapiens, UniProt O15530)",1 µM,< 50%
"MAP3K7 (Homo sapiens, UniProt O43318)",10 µM,< 50%
"ACVR1B (Homo sapiens, UniProt P36896)",10 µM,97%
"BMPR2 (Homo sapiens, UniProt Q13873)",10 µM,< 50%
"SRPK2 (Homo sapiens, UniProt P78362)",10 µM,< 50%
